Assay results pooled from the literature.
Lines come from different studies, so protocols differ.
Organism: Staphylococcus aureus

The MIC of `CCN(CC)CCCN1/C(=C/c2cc[n+](C)c3ccccc23)Sc2ccccc21` is reported as 8 µg/mL (microbial growth, broth dilution; ATCC43300 MRSA).
With `CN(C)c1cc(CN2CCOCC2)c(O)c2c1C[C@H]1C[C@H]3[C@H](N(C)C)C(O)=C(C(N)=O)C(=O)[C@@]3(O)C(O)=C1C2=O` the MIC was 2 µg/mL (microbial growth, broth dilution).
`CN(C)c1ccc2c(CC(=O)NCCCn3cc(CCCCC(=O)Oc4c(Br)cc(Br)cc4-c4[nH]c(Br)c(Br)c4Br)nn3)cc(=O)oc2c1` gave an MIC of 0.25 µg/mL (microbial growth, broth dilution; NCTC8325; 20 h).
The MIC of `CC1CCN(Cc2cc(N(C)C)c3c(c2O)C(=O)C2=C(O)[C@]4(O)C(=O)C(C(N)=O)=C(O)[C@@H](N(C)C)[C@@H]4C[C@@H]2C3)CC1` is reported as 0.25 µg/mL (RN4250, Tet K efflux).
For `Cc1ccc(C(=O)Sc2cccccc2=O)cc1`, the MIC was under 20 µM (ATCC 29213).
`NC[C@@H]1O[C@H](O[C@H]2[C@@H](O)[C@H](O[C@@H]3[C@@H](O)[C@H](N)C[C@H](N)[C@H]3O[C@H]3O[C@H](CO)[C@@H](OCCO)[C@H](O)[C@H]3N)O[C@@H]2CO)[C@H](N)[C@@H](O)[C@@H]1O` has an MIC of 32 to 64 µg/mL (broth microdilution; MRSA isolate AG 044).
`CN(C)c1cc(CNCCC(C)(C)C)c(O)c2c1C[C@H]1C[C@H]3[C@H](N(C)C)C(O)=C(C(N)=O)C(=O)[C@@]3(O)C(O)=C1C2=O` has an MIC of 1 µg/mL (MRSA 5, Tet M ribosome protection).
`Cc1cc2[nH]c(C(=O)Nc3ccccc3C)c(CN3CCOCC3)c2s1` gave an MIC of over 200 µM (ATCC 29213, LB broth; 20 h).
`O=C1OCC(SCc2ccccc2)N1/N=C/c1ccc([N+](=O)[O-])o1` (stereo not drawn) has an MIC of 3.12 µg/mL (microbial growth, broth dilution; ATCC29213; 18 h).
With `CCCCCCCCCc1nc2cc(Cl)ccc2c(=O)n1CCN` the MIC was 12.5 µM (broth microdilution; RN6390B).
The MIC of `Cc1csc(NCc2cc(N(C)C)c3c(c2O)C(=O)C2=C(O)[C@]4(O)C(=O)C(C(N)=O)=C(O)[C@@H](N(C)C)[C@@H]4C[C@@H]2C3)n1` is reported as 16 µg/mL (MRSA 5, Tet M ribosome protection).
With `CCCCCCSCC1OC(OC2C(N)CC(N)C(OC3OC(CN)C(O)CC3N)C2O)C(O)C(N)C1O` (stereo not drawn) the MIC was over 150 µg/mL (methicillin-resistant).
For `O=[N+]([O-])c1ccc2c(c1)C=[N+]1N3C(=[O+][Cu-2]1([Cl])[O]2)c1ccccc1NC3c1cc([N+](=O)[O-])ccc1O` (stereo not drawn), the MIC was 16 µg/mL (broth microdilution; ATCC 29213; 24 h, 37 °C).
`COc1c2c(cc3oc(=O)cc(-c4ccc(Cl)cc4)c13)C(=O)c1cc(C)cc(O)c1C2=O` gave an MIC of 64 µg/mL (microbial growth).
For `CNC(CC(C)C)C(=O)NC1C(=O)NC(CC(N)=O)C(=O)NC2C(=O)NC3C(=O)NC(C(=O)NC(C(=O)O)c4cc(O)cc(O)c4-c4cc3ccc4O)C(O)c3ccc(c(Cl)c3)Oc3cc2cc(c3OC2OC(CO)C(O)C(O)C2OC2CC(C)(NC(=O)CCCCCCCCC[N+](C)(C)Cc3ccccc3)C(O)C(C)O2)Oc2ccc(cc2Cl)C1O` (stereo not drawn), the MIC was 32 µg/mL (agar dilution; MRSA clinical isolate MRSA4).

Repeated from above:
`O=C1OCC(SCc2ccccc2)N1/N=C/c1ccc([N+](=O)[O-])o1` (stereo not drawn) has an MIC of 3.12 µg/mL (microbial growth, broth dilution; ATCC29213; 18 h).
